Measurements of several laboratories.
A part holds a random share of what one study measured. Changes are numbered by the printed parent chain.

Block 1 — target: CREB5, bZIP domain (human); technique: DHFR protein complementation; medium: yeast; baseline: wild-type JUN-FOS pair; direction: higher = stronger binding
Notes: single substitutions, most at no-binding floor
Starting sequence: JUN, bZIP domain (human); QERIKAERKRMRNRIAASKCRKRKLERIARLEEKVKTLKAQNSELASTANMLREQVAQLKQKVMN; partner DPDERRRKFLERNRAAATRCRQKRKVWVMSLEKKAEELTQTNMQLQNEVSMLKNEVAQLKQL
Substitution | binding fitness
L52Y | -0.818 natural log
E32I | -0.623 natural log
A57M | -0.456 natural log
E44F | -0.432 natural log
K36T | -0.466 natural log
V56E | -1.31 natural log
M51Y | -0.299 natural log
V35L | -0.57 natural log
A40V | -0.342 natural log
S43A | -0.132 natural log
A40L | -0.359 natural log
L52T | -1.4 natural log
L31H | -1.4 natural log
A57C | -0.537 natural log
V56T | -1.14 natural log
I28L | -0.297 natural log
V56M | -0.699 natural log
A49L | -0.515 natural log
E54T | -0.441 natural log
T37D | -0.286 natural log
V35E | -1.36 natural log
I28K | -0.377 natural log

Block 2 — technique: RNA Bind-n-Seq; form: RNA; medium: in vitro; concentration: 365 nM; baseline: no-protein control; direction: higher = stronger binding
Target: RNA binding protein fox-1 homolog 2, RRM domain, GST-SBP tag (RBFOX2, Homo sapiens, UniProt O43251-10, residues 100-194)
Notes: natural RNA segment, single round, ends assumed
All sequences stand within: GGGAGUUCUACAGUCCGACGAUC … UGGAAUUCUCGGGUGCCAA
Construct (chain): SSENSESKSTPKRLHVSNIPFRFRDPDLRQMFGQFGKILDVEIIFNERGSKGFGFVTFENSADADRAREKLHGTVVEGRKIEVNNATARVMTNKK
Strand | RBNS enrichment (R)
UGCAGUGCUCCCCAGUGCAGUCCUGUAAUCUGCAGCAGGGAGCACGUCCUCUGCUCUCUGCUAUGUGGUUAUUCUAAACGUCACUGGCCAGGGGACUCGCCUACUGAGAG | 0.208
AUGUCCUACAGUUCUGCUAUCACCUGACUAGAAUAGCCCUCUAGGCAACAGUGCUCAAAUGUAUGAGUUUGGAGAAGUUAACAAUCAGAAGAACAAAAACUGUAGUGUUU | 0.364
UGUGUAUCUAUACAUAUGGCUCUUGAGGACUUAGCUUUCACUACACUACAGGAUAUGAUCUCCAUGUAGUCCAUAUAAACCUGCAGAGUGAUUUUCCAGAGUGCUCGAUA | 0.438
CCCCAUUUAUGGUGCUCUGUAUUCUGGCAUUAUGCAGCAGCCUCCCAGAAGCUCUCUUCUGCUUCAAAACCUGGGAUCUCUGGCAUUACCCUAUUGGGAUGGACCGCUGG | 0.438
GCUGGGCACAUGCUGUGUACCACCGACUGCAGUCUGGCCCUGUUCUUAGUGGCAUCUGCCAAUGAGAUAUCACCUUCCCCCUCUCCUCUUUAAUCUCUUGUUAAAUUACC | 0.68
CUUCCUUAUACCCAAACGCUGGUCGGUGGAAAUAGAAAGUCACCCCUCCCCCAUCGCCUCUUUCUCAUCCCUGAUUAACAGUGAAGUUUGAGUCUUGUCGUGAGUCCUAC | 0.347
CCCCAUUGUAGUCAGGUUCCCAGGAUGGAGACAGUGCUCCUGGGGUGGCCACUCAGUGAGGAGGCUCUCUGGGGUCCAGUGUUUGGAAGAGGAGGAAAGGGGACCAAAGG | 0.397
UUCAUACCUUCUGAUGAAGUUGUACAACACCAGCAACAUUAUAAUGGCCCUGUAGCUCUGAAUGCUAUUUGUGUAACUGAAAGGUUGCACUCUAGGGUGAACCAAGCUAU | 0.341
AGGGCAUGGCAAUGGCCUCAUCCUUAAAAUGUUAUUUCUACUCUCACCCUGAGAGACCUGGGCAGCCAGGCUUUCCCCAGGCUGCCCGCCCUGAGCCAGGUGCCACCACU | 0.182
CCAGGCAGAGUUUUAGUAUGACAUUGUGUGAUGAAUGCAAAUCAACACACAGAAUAAAUGGCUCUUUCUCACCUUAUGUCAUGAAUGUUUUGGACAUCAAGCAUCCUAAU | 1.33
AGCUUCUGUUAACAUUAUAGAGACUCCUAGGAUGUGUGUUCAUGGCAUUAUAGCUUUUGAAGAAAGGCCAGUGAUCCAGCAAAGGGGGAAAAAUAUGCAUUUCACCCCAC | 0.933
CUUGUACCCAAUUGCUCCCAAUUUUGAGAGGAUUGGGUGGGCAGGGGAACUCCUAAAAAAAAAAAAUAAUAAAUGACCACUUCCUCGUUUCUGGGGAAGCAAAGGAGCUU | 0.283

Block 3 — technique: RNA Bind-n-Seq; form: RNA; medium: in vitro; concentration: 15 pmol; notes: 4-mer, random 30-nt RNA, single round; together with: 3 µM DMDA-PatA, 2 mM AMP-PNP; baseline: input library; direction: higher = stronger binding
Target: Eukaryotic initiation factor 4A-I (EIF4A1, Homo sapiens, UniProt P60842, residues 1-406, full length assumed)
Chain of UniProt P60842 (whole entry, looked up): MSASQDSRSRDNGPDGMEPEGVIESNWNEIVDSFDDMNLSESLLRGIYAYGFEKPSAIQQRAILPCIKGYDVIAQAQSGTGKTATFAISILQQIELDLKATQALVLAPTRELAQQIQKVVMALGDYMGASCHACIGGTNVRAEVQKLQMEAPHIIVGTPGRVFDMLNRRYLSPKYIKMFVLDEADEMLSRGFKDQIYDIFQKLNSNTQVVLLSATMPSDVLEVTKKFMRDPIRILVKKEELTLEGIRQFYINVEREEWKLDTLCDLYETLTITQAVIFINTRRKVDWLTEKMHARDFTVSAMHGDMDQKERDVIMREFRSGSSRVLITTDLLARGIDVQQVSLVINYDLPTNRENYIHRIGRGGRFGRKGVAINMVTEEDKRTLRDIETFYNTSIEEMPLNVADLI
Strand | 4-mer enrichment
CCGG | 1.2 fold
CACC | 0.376 fold
AACU | 0.764 fold
AGCC | 0.613 fold
GAAC | 0.802 fold
UUUG | 1.36 fold
UACG | 1.05 fold
AUUC | 0.799 fold
AGCA | 0.595 fold
GCUG | 0.925 fold
CCUC | 0.363 fold
CUUA | 0.947 fold
AGCU | 0.924 fold
AGAC | 0.913 fold
AGUG | 1.5 fold
AAGA | 1.05 fold
CGCG | 1.2 fold

Block 4 — technique: protein-binding microarray; form: double-stranded DNA, one strand shown; medium: in vitro; concentration: not given; direction: higher = stronger binding
Target: Protein C-ets-1 (ETS1, Homo sapiens, UniProt P14921, residues 1-441, K379A, full length assumed)
Chain of UniProt P14921 (whole entry, unmodified, looked up): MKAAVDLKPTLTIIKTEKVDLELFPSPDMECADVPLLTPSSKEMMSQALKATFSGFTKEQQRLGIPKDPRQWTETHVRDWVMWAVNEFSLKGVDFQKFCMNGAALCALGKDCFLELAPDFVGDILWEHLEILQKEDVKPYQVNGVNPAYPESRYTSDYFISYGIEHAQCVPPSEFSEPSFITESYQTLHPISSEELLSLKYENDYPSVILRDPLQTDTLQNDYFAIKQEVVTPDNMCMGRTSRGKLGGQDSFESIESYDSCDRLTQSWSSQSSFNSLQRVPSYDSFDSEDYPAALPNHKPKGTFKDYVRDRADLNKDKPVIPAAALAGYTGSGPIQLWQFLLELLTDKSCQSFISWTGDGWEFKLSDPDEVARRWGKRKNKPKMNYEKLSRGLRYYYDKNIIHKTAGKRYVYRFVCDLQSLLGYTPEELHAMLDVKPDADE
Notes: k-mer, scored over probes, only values ≥0.25
Strand | E-score
TACAGATA | 0.308
CGGAAAAG | 0.287
CCCGGTAA | 0.384
ACTAATCA | 0.273
CCGGGGGA | 0.408
ATCTGTCG | 0.276
GCAGGTAA | 0.264
CCGGAAGA | 0.395
CCGGCCGA | 0.336
CGACTACC | 0.25
TGCAGGAA | 0.302
CGGTACTA | 0.346
CGTACTTC | 0.253
CCGGCCGG | 0.455
CGACACGA | 0.355
CGCCGGTA | 0.432

Block 5 — technique: RNA Bind-n-Seq; form: RNA; medium: in vitro; concentration: not given; baseline: input RNA pool; direction: higher = stronger binding
Target: RING finger protein unkempt homolog, zinc fingers 1-6, GST-SBP tag (UNK, Homo sapiens, UniProt Q9C0B0, residues 30-357)
Chain of UniProt Q9C0B0 (30-357, looked up): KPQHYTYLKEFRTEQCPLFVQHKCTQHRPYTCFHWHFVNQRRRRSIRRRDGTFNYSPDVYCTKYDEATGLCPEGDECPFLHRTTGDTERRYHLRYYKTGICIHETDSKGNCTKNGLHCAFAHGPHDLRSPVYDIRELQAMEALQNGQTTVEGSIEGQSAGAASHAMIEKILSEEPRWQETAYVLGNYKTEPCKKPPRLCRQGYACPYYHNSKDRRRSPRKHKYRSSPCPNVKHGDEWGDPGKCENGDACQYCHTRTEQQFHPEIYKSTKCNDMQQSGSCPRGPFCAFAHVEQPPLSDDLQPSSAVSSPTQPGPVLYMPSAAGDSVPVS
Notes: RNA with constant flanks, human-mouse chimeric sites, ends assumed
All sequences stand within: GGGAGUUCUACAGUCCGACGAUC … CAACAGAGGAUUGAGCAUCA
Strand | bound/input enrichment [ratio]
UCUUUAAAAAAAAAAUUACCUUUUCUGACAGUGCUUUCCCUCCCAUAGAUCCACGUUCAAGCUCAAAGGCCAAAACUUUUGCACGGAGCUCAAACAUCUGAUGAAGAAAGAUUUCUGAGA | 1.35
UCUUUAAAAAAAAAAUUACCUUUUCUGACAGUGCUUUCCCUCCCAUAGGUCCAGGUUCACACUAGAAGAGCAAAGGCUUUGCACGGAGCUCAAACAUCUGAUGAAGAAAGAUUUCUGAGA | 0.444
CUGUGUGUGCUGAAUAAAUGGCUUGUAAAGAAGUUUUUCCAAGCUGUAACCCAUGCUUCCCUUAGAGUUGCUGCAAAAUGUCUCUUAUGAUAUUGAUUUUAUUUGUUAACUGAAGGUCUC | 0.546
CUGGCCUGGCCCUCCCCAGGGGCCUCCUUUCGUAUAGUCACUGCUUCUGCAUCAGAUACUUUCAGCUGCAACUCCCUGCAGGGUGGGGCACCUAUCUCAGGCAGAAGGUUUUGGUACCCU | 0.193
GACAGUGAAGAAGAGAUUAGAGAAGCAUUCCGUGUGUUUGAUAAGGAUGGCAAUGGCUAUAUUAGUGCAGCAGAGCUUCGCCAUGUGAUGACAAACCUUGGAGAGAAGUUAACAGAUGAA | 2.24
AACGUGGAACUAAGUUCCUUGGCCCGGCUUCCCAGCUUGAAUAAACUCCGGAAGUUGGAACUUAGUGACAAUAUAAUUUCUGGAGGCUUGGAAGUCCUGGCAGAGAAAUGUCCAAAUCUU | 0.244
GUUGCCAGCUUCCGGUUCCGUUGGGCUCGGUUCUCUCAGUGCUACGUUGUCUCUACGCUCUCAAUCCGCCAUCCAACAAACAUGGAUCAGGUAAUGCAGUUUGUGGAGCCCAGCCGGCAG | 0.128
UUACUUUUGACUCCCUGGGUCAAGUUCCUGUGGGAAUCAUACAGGCAGUGUUUGGACCUUCUUCGAAACAAUUCUAGAGUAGAGCGCCUUUACCAUGAUAUUGCCCAACAAGCUUUCAAA | 0.143
GAUAAGAAAAGCUUGUUGGAGACCCGCUUGCAUGUCACUGGUAGAGACCUGAGGUGUAAAAUAGCUGAAACUUUCGGAUUUCAAGAAAAUUACAUCAAAAUUGUCAUAAAUAAGAAACAG | 0.208
CCCUCCCCGGGCCACCCGCCCGCCCAAGCUCCCCGCCGAGAUCCAGGUUUCUUCUUAUUUCAUAGCAAAUAAGAAAAAUGUUCUACGCACAUUUUGUCCUCAGUAAAAGAGGGCCUCUGG | 1.32
GUUCGGCUUUGGGAUCAUGCCACAAUGACAGAAGUGAAAUCUCUGAAUUUUAAUAUGUCUGUUAGCAGCAUGGAGUAUAUUCCUGAAGGAGAGAUUUUGGUUAUUACUUAUGGACGAUCU | 0.34

Block 6 — technique: protein binding microarray; form: double-stranded DNA, one strand shown; medium: in vitro; concentration: not given; baseline: not given; direction: higher = stronger binding
Target: Histone acetyltransferase KAT6A, both winged helices, GST fusion (KAT6A, Homo sapiens, UniProt Q92794, residues 1-181)
Notes: 8-mer, flanks averaged, mean of 2 arrays, mostly near background
Construct (chain): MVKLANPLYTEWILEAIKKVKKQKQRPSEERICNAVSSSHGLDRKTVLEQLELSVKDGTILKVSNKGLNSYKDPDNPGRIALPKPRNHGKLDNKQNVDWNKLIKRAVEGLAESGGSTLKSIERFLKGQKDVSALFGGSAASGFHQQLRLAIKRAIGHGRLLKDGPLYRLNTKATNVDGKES
Strand | E-score
ACCTCACG | -0.0167
TCGACCAA | -0.0999
ATCCCAGA | -0.145
CTATCACC | -0.0121
CTTTCAGA | -0.0857
CTTCAATA | -0.207
ACAACCGT | 0.0404
GGTGTTCA | -0.0132
AAAAACGC | 0.191
AACTTATC | -0.0886
GGTGTGAC | 0.0588
CCGAAACA | 0.0962
CATCAGAA | -0.066
AGACAGTG | -0.106
AACTTCGC | 0.133
CCGCAATC | 0.192
TATGCCGA | 0.172
AAGACTCG | 0.0375
GTGTACGA | 0.199
GGAAGGTA | 0.0158
ACCGGTTA | 0.283
AAGGCAAA | -0.118
ATGAGTGA | -0.192

A few entries again (block 1):
Substitution | binding fitness
V35L | -0.57 natural log
A40V | -0.342 natural log
S43A | -0.132 natural log
A40L | -0.359 natural log
L52T | -1.4 natural log
L31H | -1.4 natural log
A57C | -0.537 natural log
V56T | -1.14 natural log
I28L | -0.297 natural log
